{"data": "Measured values pooled from the literature", "note": "Numbered parts are unrelated; each lists some results of a single study. Several values in a cell are separate wells, animals, samples, runs or records. Substitutions count along the parent as printed.", "chain of UniProt P60842 (whole entry, looked up)": "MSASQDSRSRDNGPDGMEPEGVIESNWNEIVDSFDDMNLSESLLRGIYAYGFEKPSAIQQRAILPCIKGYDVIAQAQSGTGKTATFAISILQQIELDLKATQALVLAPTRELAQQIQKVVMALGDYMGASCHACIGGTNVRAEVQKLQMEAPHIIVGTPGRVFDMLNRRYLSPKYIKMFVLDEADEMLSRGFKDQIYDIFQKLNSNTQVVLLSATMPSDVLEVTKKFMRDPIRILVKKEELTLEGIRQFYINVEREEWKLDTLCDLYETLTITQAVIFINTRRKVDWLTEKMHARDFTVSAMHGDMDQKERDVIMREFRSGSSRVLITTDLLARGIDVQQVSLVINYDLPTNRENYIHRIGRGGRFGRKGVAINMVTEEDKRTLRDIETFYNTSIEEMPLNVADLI", "chain of UniProt Q9UQM7 (whole entry, looked up)": "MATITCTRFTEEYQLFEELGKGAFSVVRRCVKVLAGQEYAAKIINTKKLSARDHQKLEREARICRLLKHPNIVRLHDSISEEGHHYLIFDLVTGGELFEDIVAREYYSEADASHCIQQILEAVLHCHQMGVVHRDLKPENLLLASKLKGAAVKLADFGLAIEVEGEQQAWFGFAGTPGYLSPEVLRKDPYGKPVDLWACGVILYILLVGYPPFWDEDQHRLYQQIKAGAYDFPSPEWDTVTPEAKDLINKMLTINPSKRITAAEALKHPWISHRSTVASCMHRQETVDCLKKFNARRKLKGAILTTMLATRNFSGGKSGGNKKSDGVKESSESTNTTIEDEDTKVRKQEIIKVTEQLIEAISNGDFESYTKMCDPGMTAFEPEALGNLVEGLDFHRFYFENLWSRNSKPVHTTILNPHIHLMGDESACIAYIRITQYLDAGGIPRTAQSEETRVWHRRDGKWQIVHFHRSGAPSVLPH", "chain of UniProt P9WI81 (whole entry, looked up)": "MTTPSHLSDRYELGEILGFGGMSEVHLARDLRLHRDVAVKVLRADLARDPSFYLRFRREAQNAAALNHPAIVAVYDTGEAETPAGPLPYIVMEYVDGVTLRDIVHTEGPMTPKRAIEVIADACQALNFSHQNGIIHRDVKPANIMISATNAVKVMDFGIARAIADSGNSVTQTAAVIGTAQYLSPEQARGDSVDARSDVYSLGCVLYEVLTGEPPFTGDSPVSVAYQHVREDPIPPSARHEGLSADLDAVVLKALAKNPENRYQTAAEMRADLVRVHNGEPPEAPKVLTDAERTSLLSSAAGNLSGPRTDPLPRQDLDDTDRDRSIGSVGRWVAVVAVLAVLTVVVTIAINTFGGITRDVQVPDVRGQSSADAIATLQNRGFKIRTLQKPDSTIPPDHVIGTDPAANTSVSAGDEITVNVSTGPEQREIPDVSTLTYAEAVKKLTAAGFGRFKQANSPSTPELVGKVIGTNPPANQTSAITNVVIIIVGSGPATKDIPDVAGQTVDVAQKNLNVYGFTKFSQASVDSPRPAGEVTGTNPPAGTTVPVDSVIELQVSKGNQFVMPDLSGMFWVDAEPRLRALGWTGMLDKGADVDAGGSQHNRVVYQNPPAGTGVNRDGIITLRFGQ"}
{"data": "Series 1", "target": "CCNE2, cyclin fold, Cln2 fusion (human)", "technique": "yeast growth competition, sequencing", "sample": "yeast", "setting": "strong parent motif", "relative to": "not given", "reading": "higher = stronger binding", "parent": "viral docking peptide; CKVKRKLFGSENI; partner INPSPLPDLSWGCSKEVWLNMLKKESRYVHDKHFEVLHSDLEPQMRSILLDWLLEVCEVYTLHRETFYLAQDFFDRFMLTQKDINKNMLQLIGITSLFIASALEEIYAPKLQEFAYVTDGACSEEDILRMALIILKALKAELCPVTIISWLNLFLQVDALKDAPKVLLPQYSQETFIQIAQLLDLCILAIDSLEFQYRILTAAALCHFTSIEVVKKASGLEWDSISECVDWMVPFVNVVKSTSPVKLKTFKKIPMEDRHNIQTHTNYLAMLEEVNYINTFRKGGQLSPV"}
{"Change": "S10A", "normalised enrichment score": 3.19}
{"Change": "R5K F8L", "normalised enrichment score": 0.232}
{"Change": "K6A", "normalised enrichment score": 1.96}
{"Change": "R5A", "normalised enrichment score": 1.14}
{"data": "Other studies, line by line"}
{"SMILES": "N#Cc1nn(-c2c(Cl)cc(C(F)(F)F)cc2Cl)c(N)c1[S+]([O-])C(F)(F)F (centres unmarked)", "target or system": "HaCaT", "conditions": "100 µM, 60 h", "measurement": "viability", "result": "15.1%"}
{"SMILES": "CC(=O)O[C@@]12CO[C@@H]1C[C@H](O)[C@@]1(C)C(=O)[C@H](O)C3=C(C)[C@@H](OC(=O)[C@H](O)[C@@H](NC(=O)c4ccccc4)c4ccccc4)C[C@@](O)([C@@H](OC(=O)c4ccccc4)[C@H]21)C3(C)C", "target or system": "CAMK2A (Homo sapiens, UniProt Q9UQM7)", "assay": "enzyme activity, inhibitor", "conditions": "10 µM", "measurement": "inhibition", "result": "42%"}
{"SMILES": "O=C(NCc1ncc(C(F)(F)F)cc1Cl)c1ccc2c(c1)C1(CCS(=O)(=O)CC1)[C@@H](C1CC1)N2S(=O)(=O)c1ccc(F)cc1", "target or system": "pknB (Mycobacterium tuberculosis, UniProt P9WI81)", "assay": "cell-free assay, competition with immobilised ligand", "conditions": "1 µM", "measurement": "remaining binding", "result": "84%"}
{"SMILES": "COC(=O)[C@@H]1[C@@H](c2ccccc2)[C@]2(c3ccc(OC)cc3)Oc3cc(OC)cc(OC)c3[C@@]1(O)[C@@H]2O", "target or system": "EIF4A1 (Homo sapiens, UniProt P60842)", "assay": "RNA clamping, fluorescence polarization", "conditions": "concentration not given, mean of two replicates, with: FAM-labelled poly r(AG)8 RNA", "measurement": "fluorescence polarization change", "result": "3.7 mP and 8 mP and 3.2 mP and 5.5 mP"}
{"note": "Excerpt of the above (series 1):"}
{"Change": "R5K F8L", "normalised enrichment score": 0.232}
